Published values from different studies.
Each numbered part is a random draw from the data of one study; scales do not carry over between parts. Substitutions count along the parent as printed.
Sequence of UniProt P61077 (whole entry, looked up): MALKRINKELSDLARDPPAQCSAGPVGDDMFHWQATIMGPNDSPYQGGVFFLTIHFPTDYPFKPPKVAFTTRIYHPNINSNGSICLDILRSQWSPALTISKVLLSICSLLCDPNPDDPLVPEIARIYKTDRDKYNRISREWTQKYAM

Series 1
Target: ABI1, truncated, D143A, DHFR fusion (Arabidopsis thaliana)
Method: DHFR PCA, deep sequencing
Medium: yeast
Notes: methotrexate growth selection, single substitutions
Added: (+)-ABA 4.8 µM
Relative to: wild-type fitted maximum
Reading: higher = stronger binding
Starting sequence: PYL1, truncated, DHFR fusion (Arabidopsis thaliana); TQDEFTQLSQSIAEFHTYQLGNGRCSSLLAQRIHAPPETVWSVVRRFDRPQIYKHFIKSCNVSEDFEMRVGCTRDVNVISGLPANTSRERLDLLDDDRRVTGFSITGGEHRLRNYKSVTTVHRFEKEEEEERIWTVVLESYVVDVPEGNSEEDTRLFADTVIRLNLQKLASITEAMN
| Change | relative binding score [%] |
| --- | --- |
| E151H | 62.1 |
| I33N | -34.8 |
| H110T | 20.6 |
| T154C | 60.6 |
| F124E | 55.8 |
| S27I | 0.434 |
| F56R | -6.32 |
| S42A | 71.2 |
| R163E | 7.18 |
| S140A | -6.31 |
| T86N | 81.7 |
| L112Y | -0.222 |
| H16N | 3.82 |
| E139P | 4.19 |
| L93F | 52.6 |

Series 2
Target: RNA binding protein fox-1 homolog 2, RRM domain, GST-SBP tag (RBFOX2, Homo sapiens, UniProt O43251-10, residues 100-194)
Method: RNA Bind-n-Seq
Molecule type: RNA
Medium: in vitro
Tested at: 365 nM
Notes: natural RNA segment, single round, ends assumed
Relative to: no-protein control
Reading: higher = stronger binding
Constant ends, left off below: GGGAGUUCUACAGUCCGACGAUC … UGGAAUUCUCGGGUGCCAA
Residues (chain): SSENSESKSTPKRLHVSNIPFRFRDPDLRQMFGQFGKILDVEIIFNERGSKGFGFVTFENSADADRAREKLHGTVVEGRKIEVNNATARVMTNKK
| Sequence | RBNS enrichment (R) |
| --- | --- |
| CCUCUCCUGAUUCAGACCAGCUCCAUCAAGCAACCUCUUUUGACUUUCUGUAUAUGGAUGGCACAGAGGAAUCAAGGACAACUUAGCUCUCUGCAUACUUGGAACAACCA | 0.666 |
| CUGGGGAGGUUGUGGUGCAGCUGAGUGAGGACCUGCUGUCCCAGGCAGUGAUGAUGGUGGAGAACAGCCGGCCCACAUUGGCGAUCAACCUGACCGGAGCCCGCCAGUAC | 0.467 |
| CGCCGCCUCGCCCACCGCAUGCCCCCUCGUGCCAGUCGCGCUGCCUGUGUGGUGUCGCGCCUUCUCCCCCCCGGGGCUGGGUUGGCGCACCCUCCCCUCCCGUCUACUCA | 2.56 |
| UUAUAGGUAUGAACCAACAUGCCCAGCUCUCUCUUCUCUCGUGAAGUCAUACCCUGUGAGUAACUGGCCUGUAAUGGCGCUCUUCCUAGGACAGUGGUGACCUUGUCUGU | 0.418 |
| UCCUGUUGAAGACUUCCUCUCUACCCCCCACCUUGGUCCCUCUCAGAUACCCAGUGGAAUUCCAACUUGAAGGAUUGCAUCCUGCUGGGGCUGAACAUGCCUGCCAAAGA | 1.06 |
| CUUGAUUUUUGUCAGCUAAUUACAUAAUUGGUAAGCUAUAAUUGAAACCUUAUGGCUUAAAAUUCCUUAACUCCUUUUUGAUUCAUGUUUGUAGUCAUGUUGUCAACAGA | 0.474 |
| UUGGCAAUGCCAUCAUCUCCUGCCUUCCUCCUGGGCCCUCUCUGCUCUGCGUGUCACCUGUGCUUCGGGCCCUUCCCACAGGACAUUUCUCUAAGAGAACAAUGUGCUAU | 0.346 |
| CAUUCUCUUCCUGGCCAGUAGGAGUGCUGCUGUGCAGGGUCACUGCCUGCCCUGCUCCCUCUCUGGCUCCCAGAAGAUCACAUGCUACCUCUGUCUCAUUUACAAAUUGG | 0.333 |
| CUUGUUUGAGAAUGGCUACUAGAGUUUAAGAGGCUAUGUAUGGAGUUUGUUGGGGAUGUAGUGAUGGUGGUAAGGAUCAGACCUAGGGCCCAGUGUACACUUAAGCACAU | 3.15 |
| CCAUUUUCUCUUUCUAAGAAGAGCAACCUCAGCCGGAGUGAGUUUUUUCUGACUUUGCAGCUGAGUCUGGAGAAAAGUGGCAUGCCAGAGCGGGUCGGUGGGAAACAGGG | 1.52 |
| GGGGUAGGAUGGUUGGGACCAGAUUGACUACCCUGUACCCUUCCUUCUUCCCCAAUAUGCCUGCGCCAUCUUCACAUUCUGAAGUUGAAACCCAUGAUCACCCCUUUGAG | 1.02 |
| AGAUUUGAAUAAUGACCAAUUCUAAAAUCAAUAACGUUCCAUUUGCUUAUGUAGCACUUCUGGACCCUGCUAUAAGCUGAGAAGUCUAGAGGUUGGUUUGGGGACCAACC | 0.801 |

Series 3
Target: Interferon regulatory factor 7, full length, phosphomimetic (IRF7, Homo sapiens, UniProt Q92985, residues 1-503, S101K/S471D/S472D/S475D/S476D/S477D/S483D/S484D/S487D)
Method: protein-binding microarray
Molecule type: double-stranded DNA, one strand shown
Medium: in vitro
Tested at: 250 nM
Notes: 60-bp whole probe
Added: salmon DNA 0.4 mg/ml
Relative to: random background probes
Reading: higher = stronger binding
Constant ends, left off below: GCCTAGCAC … GTCTTGATTCGCTTGACGCTGCTG
Target sequence (chain): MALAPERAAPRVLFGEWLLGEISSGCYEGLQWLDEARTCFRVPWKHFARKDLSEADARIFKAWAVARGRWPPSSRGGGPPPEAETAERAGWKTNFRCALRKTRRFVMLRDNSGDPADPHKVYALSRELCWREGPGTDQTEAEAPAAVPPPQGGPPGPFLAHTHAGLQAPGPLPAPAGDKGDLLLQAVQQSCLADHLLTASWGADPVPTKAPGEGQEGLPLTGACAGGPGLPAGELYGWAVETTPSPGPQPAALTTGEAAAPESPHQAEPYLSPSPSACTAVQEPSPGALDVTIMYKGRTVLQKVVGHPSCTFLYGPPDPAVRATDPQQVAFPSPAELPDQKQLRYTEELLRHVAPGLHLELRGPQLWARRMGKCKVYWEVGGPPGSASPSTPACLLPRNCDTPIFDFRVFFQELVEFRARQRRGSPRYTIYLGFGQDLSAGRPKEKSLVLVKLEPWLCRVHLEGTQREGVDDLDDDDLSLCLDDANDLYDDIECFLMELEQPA
| Sequence | log fluorescence [z-score] |
| --- | --- |
| GGCTGTTTGGTTCTGATCCTGTGCTAG | -0.393 |
| TCATTTTGAGTTTTCCTACTGTGCTAG | 1.53 |
| TCATTATGCTCTTTCTAACTGTGCTAG | 1.04 |
| TTAGGCCTCGGTTTCGGTTAGTGCTAG | 8.71 |
| TCAAATATATATATTGTACTGTGCTAG | 0.536 |
| CTCCCTTGAGGTTTTCTCTGGGTGCTA | -0.698 |
| GACGGCTTCGACTTTCGGGACGTGCTA | 0.0546 |
| GAGGATATCAGTATCGAGACGTGCTAG | -0.0368 |
| GGCGGACTGGGGTTTCGGGACGTGCTA | 0.635 |
| GACGATCTCAGTTTCGGGACGTGCTAG | 2.82 |
| TAGAAATTTTTTTTCTAACTGTGCTAG | 0.0292 |
| CTGCTCCTCTTTTTTTGGTAGTGCTAG | 0.199 |
| CTAGAACTGGGGTTTCGATTAGTGCTA | 5.95 |
| AAAACACTAATTTTCATTTTGTGCTAG | 1.78 |
| GTAGATCTCAGTATCGATTAGTGCTAG | 0.545 |
| GACGGTCTGGACTATCGGGACGTGCTA | -0.593 |

Series 4
Target: Histone acetyltransferase KAT6A, winged helix 1, GST fusion (KAT6A, Homo sapiens, UniProt Q92794, residues 1-85)
Method: protein binding microarray
Molecule type: double-stranded DNA, one strand shown
Medium: in vitro
Tested at: not given
Notes: 8-mer, flanks averaged, mean of 2 arrays, mostly near background
Relative to: not given
Reading: higher = stronger binding
Construct (chain): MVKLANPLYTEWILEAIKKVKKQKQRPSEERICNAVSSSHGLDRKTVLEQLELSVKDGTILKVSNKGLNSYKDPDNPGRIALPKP
| Sequence | E-score |
| --- | --- |
| GACATCGC | 0.217 |
| ATTACACC | -0.0591 |
| CGAACCCC | 0.0682 |
| ACACTCCC | -0.00279 |
| CCGAACCC | 0.0663 |
| AACCGGCG | 0.399 |
| GCTGACTA | 0.0564 |
| ACTGTGCC | -0.0791 |
| ACAGGCTG | -0.155 |
| GTCCTTAA | -0.165 |
| AAGCGTTG | 0.0239 |
| ATCACTCG | -0.103 |
| GCAAGACA | 0.0789 |
| CTCAGTTA | -0.0779 |
| ATCTCCTA | -0.214 |

Series 5
Target: CCNB3, cyclin fold, Cln2 fusion (human)
Method: yeast growth competition, sequencing
Medium: yeast
Notes: weak parent motif
Relative to: not given
Reading: higher = stronger binding
Starting sequence: CDKN1B docking peptide (human); PSACRNLFGPVDH
| Change | normalised enrichment score |
| --- | --- |
| PSMCRNLFGPVDH [A3M] | 1 |
| PSACGNLFGPVDH [R5G] | -0.131 |
| PSACRNLFGPFDH [V11F] | 0.41 |
| KSACRNLFGPVDH [P1K] | 0.669 |
| PCACRNLFGPVDH [S2C] | 0.45 |
| PSACSNLFGPVDH [R5S] | 0.232 |
| ISACRNLFGPVDH [P1I] | 0.173 |
| PSACTNLFGPVDH [R5T] | 0.0597 |
| PSACRNLFGPSDH [V11S] | 0.518 |
| PSACKNLLGPVDH [R5K F8L] | 0.23 |
| PSACRNLFMPVDH [G9M] | 0.373 |
| PSACRKLFGPVDH [N6K] | 0.743 |
| PDACRNLFGPVDH [S2D] | 0.211 |
| PSACRNLFGPVDI [H13I] | 0.425 |

Single results of other studies
B1: RNF5 RING domain (UniProt Q99942); chain ERGGAGATFECNICLETAREAVVSVCGHLYCWPCLHQWLETRPERQECPVCKAGISREKVVP
| Molecule | target | assay | system | conditions | how to read | measurement | result |
| --- | --- | --- | --- | --- | --- | --- | --- |
| B1 (RNF5 RING domain) | UBE2D3 UBC core domain (UniProt P61077) | yeast two-hybrid | yeast | mostly zero background | relative to: not given, higher = stronger interaction | lacZ reporter activity | 500 |

For quick reference, copied from above (series 4):
| Sequence | E-score |
| --- | --- |
| GTCCTTAA | -0.165 |
| CGAACCCC | 0.0682 |
| CCGAACCC | 0.0663 |
| CTCAGTTA | -0.0779 |
| ATTACACC | -0.0591 |
| GACATCGC | 0.217 |
| GCAAGACA | 0.0789 |
| ACAGGCTG | -0.155 |
| AAGCGTTG | 0.0239 |
| GCTGACTA | 0.0564 |
| AACCGGCG | 0.399 |
| ATCTCCTA | -0.214 |
